# Experimental data collected from several papers.
# Parts stem from different laboratories: compare values within a part only.

# Sample 1 — technique: universal PBM; form: double-stranded DNA, one strand shown; matrix: in vitro; concentration: 600 nM; reading: higher = stronger binding
# Target: Sal-like protein 4, full length isoform A (SALL4, Homo sapiens, UniProt Q9UJQ4, residues 1-1053)
# UniProt Q9UJQ4, sequence (whole entry, looked up): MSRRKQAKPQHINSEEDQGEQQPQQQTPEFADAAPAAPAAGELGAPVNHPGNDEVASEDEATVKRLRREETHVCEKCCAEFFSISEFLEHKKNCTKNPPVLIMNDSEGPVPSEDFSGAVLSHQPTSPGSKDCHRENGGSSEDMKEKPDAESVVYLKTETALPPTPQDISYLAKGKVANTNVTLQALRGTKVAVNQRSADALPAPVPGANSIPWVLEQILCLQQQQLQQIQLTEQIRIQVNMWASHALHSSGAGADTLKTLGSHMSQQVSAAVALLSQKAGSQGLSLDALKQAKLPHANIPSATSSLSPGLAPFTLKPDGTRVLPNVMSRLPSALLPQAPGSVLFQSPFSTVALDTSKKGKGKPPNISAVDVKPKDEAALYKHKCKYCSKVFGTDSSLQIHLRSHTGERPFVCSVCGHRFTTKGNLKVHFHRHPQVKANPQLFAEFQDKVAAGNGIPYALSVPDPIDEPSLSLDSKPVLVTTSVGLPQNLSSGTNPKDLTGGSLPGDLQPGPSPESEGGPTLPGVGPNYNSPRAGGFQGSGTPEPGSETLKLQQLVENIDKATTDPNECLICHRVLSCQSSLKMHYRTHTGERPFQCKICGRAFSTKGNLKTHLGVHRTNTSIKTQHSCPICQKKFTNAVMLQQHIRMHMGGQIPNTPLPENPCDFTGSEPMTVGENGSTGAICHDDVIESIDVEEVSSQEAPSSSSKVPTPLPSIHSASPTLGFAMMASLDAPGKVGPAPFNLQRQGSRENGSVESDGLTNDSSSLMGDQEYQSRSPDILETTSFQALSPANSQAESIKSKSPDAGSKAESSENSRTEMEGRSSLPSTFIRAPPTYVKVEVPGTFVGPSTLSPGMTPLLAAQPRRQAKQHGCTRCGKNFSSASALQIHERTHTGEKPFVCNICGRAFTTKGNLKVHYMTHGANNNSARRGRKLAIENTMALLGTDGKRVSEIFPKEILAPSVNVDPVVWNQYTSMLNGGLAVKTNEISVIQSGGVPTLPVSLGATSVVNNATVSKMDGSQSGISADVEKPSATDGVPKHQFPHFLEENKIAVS
# Setting: 8-mer, flanks averaged, mean of replicates
Oligonucleotide,E-score
TACCGAGA,-0.0484
GCAGGCCA,-0.321
GCCCATCA,-0.186
GAGTGAGA,-0.101
GACACCCA,-0.196
ACGTCCGG,-0.279
TCATTTCA,0.226
AGGATTAT,0.261
CTCGCGAC,-0.186
GCCTCATA,0.172
GGTTGGAC,-0.0653
CAGGGCTA,-0.136
GACCGATA,-0.018
AAAAGGTG,0.111
CCCCAAAC,-0.11
TATGTCCA,0.0389
AAACCAGA,0.04
CCCTCCGC,-0.214
CGGCGATC,-0.315
CTAGTTGA,0.0576
GGGCCAGA,-0.375
GAGGTATA,0.205
AGGTGCCG,-0.233
AGGTTGCC,-0.211
CCGCGGGA,-0.29

# Sample 2 — technique: RNA Bind-n-Seq; form: RNA; matrix: in vitro; concentration: not given; reference: input RNA pool; reading: higher = stronger binding
# Target: RING finger protein unkempt homolog, zinc fingers 1-6, GST-SBP tag (UNK, Homo sapiens, UniProt Q9C0B0, residues 30-357)
# Setting: RNA with constant flanks, human-mouse chimeric sites, ends assumed
# Shared flanks, not repeated: GGGAGUUCUACAGUCCGACGAUC … CAACAGAGGAUUGAGCAUCA
# Target sequence (chain): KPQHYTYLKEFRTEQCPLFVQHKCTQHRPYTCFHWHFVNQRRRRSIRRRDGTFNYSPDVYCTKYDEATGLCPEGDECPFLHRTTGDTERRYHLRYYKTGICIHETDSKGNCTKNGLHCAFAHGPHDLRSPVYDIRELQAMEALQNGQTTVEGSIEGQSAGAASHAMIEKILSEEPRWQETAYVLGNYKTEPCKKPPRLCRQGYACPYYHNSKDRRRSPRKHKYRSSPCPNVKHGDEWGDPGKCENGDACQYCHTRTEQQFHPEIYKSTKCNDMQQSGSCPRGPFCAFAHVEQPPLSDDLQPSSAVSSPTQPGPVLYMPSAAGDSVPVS
Oligonucleotide,bound/input enrichment
GUGCCCUUCUCGCUGCUGCGGAGCCCGAGCUGGGAACCAUUCCGGGACUGGUACCCUGCACACAGCCGCCUCUUCGAUCAAGCUUUCGGGCUGCCCCGGCUGCCGGAUGAGUGGUCGCAG,0.0639 ratio
GCUCUUGGGAAUGUAAUAAGUGCCUUGGGGGACAAGAGCAAGAGAGCCACCCAUGUCCCUUACAGAGACUCUAAGCUGACAAGACUCUUGCAGGAUUCCCUUGGGGGUAAUAGCCAAACC,0.176 ratio
GCCACCAAUUCCAGCCAACAUGACCCUUGCUGCCUACAAAGAGAAGAUGAAGGAGCUCCCGCUGGUGUCCUUGUUCUGCUCUUGCUUCCUGGCCGAUCCCCUGAAUAAGUCGUCCUACAA,0.293 ratio
CAGGGCAUCAUCUCUCGUGCUGUUAGACACCUUUUUAAGAGUAUUGAUGAGAAAAAGACCUCAGCGAUUAAAAACGGGCUGCCCCCUCCUGAAUUCAAAGUGAAUGCCCAAUUCUUAGAG,0.826 ratio
GUCAACAGCUGCCUCAACCCCAUCCUCUACGCCUUCCUGGAUGAGAACUUCAAGGCCUGCUUCCGCAAGUUCUGCUGUGCAUCUGCCCUGCGCCGGGAGAUGCAGGUGUCUGACCGCGUG,0.268 ratio
AGAGAUAAGACAUCCAGGAACAUGCGAGGGUCACGGAUGAAUGGGUUGCCUAGCCCCACUCAUAGUGCCCACUGUAGCUUCUACCGAACCAGAACCUUGCAGGCACUGAGUAAUGAGAAG,0.248 ratio
GAGCGUCUUGCCCGCACUGGGAUCAUCGUGACCACUAGUGAGGCUGUCCUCCUACAGCUGGUGGCUGAUAAGGACCACCCGAAGUUCAAGGAAAUUCAGAAUCUAAUUAAGGCGAGUGCC,0.0914 ratio
CUGGGUAUCAUCUCUCGUGCUGUUAGACACCUUUUUAAGAGUAUUGAUGAGAAAAAGACCUCAGCGAUUAAAAACGGGCUGCCCCCUCCUGAAUUCAAAGUGAAUGCCCAGUUCCUAGAG,0.402 ratio
GGUGGGGUGGUCAUUGCCGUUUGAGCUGCUGAUUUUCAUGAGUCGCCUUCAAAACUCUCGCAUAGGGUUGACAAUGUGGGGGGGUGGGGGAUCCAGCUUAUUCUUUUAUUUUCAAGUCCA,0.438 ratio
CUGUGACCACAAGAUCCUGAAGUUUGAGCAGCUGAAGCACUUUUCUUCUCCUUGCCUGAACCCCCCCCCACUGCCCCCCCAUCCCCCAGUGUCGGCUGAGAUGUUGCCUCUGCACGGUUC,1.32 ratio
ACCUCCCCCUCCCGCCUCACCCCACCCCCGCUUUUUGGAAAGUUUUUGGCGUUUCUUUUCCUUCCCCAUACAAAGUGGUUUUUACCACCCCCGCAAGGGUCUAUCGAAGGGCUUGACGGA,1.92 ratio

# Sample 3 — technique: protein binding microarray; form: double-stranded DNA, one strand shown; matrix: in vitro; concentration: not given; reference: not given; reading: higher = stronger binding
# Target: Histone acetyltransferase KAT6A, winged helix 1, GST fusion (KAT6A, Homo sapiens, UniProt Q92794, residues 1-85)
# Setting: 8-mer, flanks averaged, mean of 2 arrays, mostly near background
# Target sequence (chain): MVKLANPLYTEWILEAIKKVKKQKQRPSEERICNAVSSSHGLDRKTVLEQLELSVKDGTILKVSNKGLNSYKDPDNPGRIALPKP
Oligonucleotide,E-score
ACGCCAGG,0.0242
CTAGGCAC,-0.133
ATCAGCAT,-0.249
AGATGTTC,-0.149
AAATGTCA,-0.131
GAACACGC,0.237
TCAGGAGA,-0.197
ATAGTAAA,0.0279
ACGGGATC,0.342
CACATATA,-0.0506
GCGTCCGA,0.274
CGCGTACA,0.276
ACGAAGTG,-0.143
CGGGCTTC,0.243
GGAGTAGA,0.0193
CCGGCACC,0.255
CTTAATCA,-0.183
ACCTACAC,-0.211
AGATACAT,-0.17
GAATTTTA,-0.173
CTCGCTGC,0.0647
AATTTTCG,-0.0912
GACCCACC,0.0364
CGGAGACG,0.294
CTCGGATC,-0.00118

# Sample 4 — technique: aptamer microarray, sandwich; form: DNA with 2'F-ANA; matrix: in vitro; concentration: 200 nM; together with: Cy3 exosite-II aptamer, 400 nM; reading: higher = stronger binding; oligonucleotide: GGTTGGTGTGGTTGG
# Target: Prothrombin, mature alpha-thrombin (F2, Homo sapiens, UniProt P00734)
# Setting: whole 15-mer aptamer, many near background
Modification,mean fluorescence intensity [a.u.]
2'F-ANA at 1 2 3 4 8 9 10 13 14 15,53.8
2'F-ANA at 1 2 3 4 5 7 12 14,44
2'F-ANA at 2 4 9 10 11 13 14 15,80.9
2'F-ANA at 2 3 8 10 11 12,424
2'F-ANA at 1 2 5 6 7 8 10 11 12 15,48.6
2'F-ANA at 1 2 5 6 8 9 11 12 13,77.5
2'F-ANA at 1 5 6 9 10 11,48.8
2'F-ANA at 2 3 5 6 7 11 13 14 15,51.4
2'F-ANA at 3 4 7 8 10 11 12 14 15,195
2'F-ANA at 2 3 6 8 11 13 14 15,317
2'F-ANA at 1 2 8 10 13 15,57.3
2'F-ANA at 2 6 7 9 11 12 13,413
2'F-ANA at 5 7 9 10 11 12 13,50.7
2'F-ANA at 4 8 14 15,110
2'F-ANA at 3 6 8 9 10 11 12 13 15,463
2'F-ANA at 1 7 8 9 13 15,185
2'F-ANA at 1 4 5 6 7 8 12 14,60.1
2'F-ANA at 3 5 6 8 12 13,203
2'F-ANA at 2 3 4 6 8 11,515
2'F-ANA at 4 8 11 12 14 15,121
2'F-ANA at 1 5 6 7 8,61.9
2'F-ANA at 1 2 7 9 13,114
2'F-ANA at 5 6 10 14,43.7
2'F-ANA at 3 4 6 8 12 14 15,334
2'F-ANA at 3 4 6 8 10 11 12 13 15,221

# Sample 5 — technique: RNA Bind-n-Seq; form: RNA; matrix: in vitro; concentration: 365 nM; reference: no-protein control; reading: higher = stronger binding
# Target: RNA binding protein fox-1 homolog 2, RRM domain, GST-SBP tag (RBFOX2, Homo sapiens, UniProt O43251-10, residues 100-194)
# Setting: natural RNA segment, single round, ends assumed
# Shared flanks, not repeated: GGGAGUUCUACAGUCCGACGAUC … UGGAAUUCUCGGGUGCCAA
# Construct (chain): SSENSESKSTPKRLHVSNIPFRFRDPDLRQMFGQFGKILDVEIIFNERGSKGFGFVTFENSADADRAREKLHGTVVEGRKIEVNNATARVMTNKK
Oligonucleotide,RBNS enrichment (R)
UGUUCAUCUCUGCCUUUGGACUAAAUAGGGGCAUCUGUGCAAAACUGUAGAAGCCAUUUUGAAGGAUUUGGCUUUUUAUUGUUUGUGGCAUUAAUAAGGGAGCUUACCAU,0.29
CUGUGACCGCUACACAAAUUGUUUAUCAUCUUUGGGUCUCUAUUGCCUUCUUUAUAAAAUAAGUGUAAGUUGUUCAGCCUGCCUCACAGGGCUGUUGUGAGGAAAUAAAA,0.738
GGAUUUAGUUUCCUUUUUCCUUUUUUAAAUAUUGGUUUUAAAAAGGGAGCCUGAUGCCCCCAAUUGGUAGUGAGAAUUUGGGGACCUCCCCAACCCCCGACCCCACAAAC,0.513
UGGAAGGAAAGCAGCAUGUUCCAGUUCUAAAAUGCAGUUACCAGACCCAUCACUUUAAAUCCUUAAAGUUAGAAGCUAGCAAAUUUUCUGUAGUGCAGAACGUUUAUUGC,18.7
CCAGGCCCAGCUGCCUUUGGCUUUGAUCUCAAGUCAGGCUGAAGGCAGCGAAGCCUCGGGGCCCAAGCCCCUCCCCAGCCCCCUCUCCCGGACAGACGCCUUGCCCAGGG,0.202
UCUAGAUGUAUGGGCAGGGCUGCACCAAGGCCUGGGCAUGCUUCCUCAGGGUAUCAAAGGAGCCCUUUGCUGUGAACCUGGCUAGGAAUGCAAGAUGACUCAGAGUAUAG,1.87
UUUGAGGUCAUUUUUCAGCAACAUUGGAUUCCUUUCUCCUCGGUGUGCUCAGCCUUCUCUGCAGCCUCUGUGAGUUUUCAGCACGUGUGCAGCCACACAGGCUGCAACCU,1.08
AAGGCCUCUCAGACCCAGAUGUGACGGGGUGUGUGGCCCGAGGAAGCUGGACAGCGGCAGUGGGCCUGCUGAGGCCUUCUCUUGAGGCCUGUGCUCUGGGGGUCCCUUGC,0.405
CGACAGGCUAGGGUUAGGCAAUGUACCACAGGCCUGAUAGUCCCUGGCUCCUAGCUGCCCAUAGGCUCCUAGUGCAUGAGGAAUUCUGAGGAGAGGACAAGUGGGGACAU,17.1
UGAAUCAUGUUCUAGUUGCUUGACCCUGCCACAUGGGUCCAGUGUUCAUCUGAGCAUAACUGUACUAAAUCCUUUUUCCAUAUCAGUAUAAUAAAGGAGUGAUGUGCAAU,0.38
GACCAUCUCAGGGUGGAGCAUUCUGUCUAAGAGAAGAAAGAUAAGGAGGCUCCCACCCACCUCUCCCAAGAGCAGACAUUAAACAUCUUUGUGCUUUGAAGAGAGUGAAU,0.425
UUUGGCUUUUGGUAAAUUCAAUCCAGGAAAGACUAGCAUGUGCACUUUAUCUCAUAAUCUUCCAGUACAUAUGCUCUCAGUUGGGAUAGCAGUUCAUUUCCAUUAGGCAG,2.22

# For quick reference, copied from above (sample 3):
Oligonucleotide,E-score
ATAGTAAA,0.0279
CACATATA,-0.0506
AGATGTTC,-0.149
GACCCACC,0.0364
GGAGTAGA,0.0193
CGCGTACA,0.276
ACGCCAGG,0.0242
